Values quoted from earlier work as cited in several papers.
Lines come from different studies, so protocols differ. pEC50, pKi: −log10 of the molar value.
Chain of UniProt Q15391 (whole entry, looked up): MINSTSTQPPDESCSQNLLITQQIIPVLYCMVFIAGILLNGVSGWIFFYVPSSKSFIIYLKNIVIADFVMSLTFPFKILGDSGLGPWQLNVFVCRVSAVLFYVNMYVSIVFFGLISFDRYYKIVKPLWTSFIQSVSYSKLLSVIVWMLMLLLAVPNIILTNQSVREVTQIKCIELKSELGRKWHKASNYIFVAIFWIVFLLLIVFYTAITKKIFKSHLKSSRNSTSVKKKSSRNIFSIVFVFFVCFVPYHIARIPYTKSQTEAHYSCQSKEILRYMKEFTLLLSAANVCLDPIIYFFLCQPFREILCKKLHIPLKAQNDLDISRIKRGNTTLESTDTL
Chain of UniProt Q92911 (whole entry, looked up): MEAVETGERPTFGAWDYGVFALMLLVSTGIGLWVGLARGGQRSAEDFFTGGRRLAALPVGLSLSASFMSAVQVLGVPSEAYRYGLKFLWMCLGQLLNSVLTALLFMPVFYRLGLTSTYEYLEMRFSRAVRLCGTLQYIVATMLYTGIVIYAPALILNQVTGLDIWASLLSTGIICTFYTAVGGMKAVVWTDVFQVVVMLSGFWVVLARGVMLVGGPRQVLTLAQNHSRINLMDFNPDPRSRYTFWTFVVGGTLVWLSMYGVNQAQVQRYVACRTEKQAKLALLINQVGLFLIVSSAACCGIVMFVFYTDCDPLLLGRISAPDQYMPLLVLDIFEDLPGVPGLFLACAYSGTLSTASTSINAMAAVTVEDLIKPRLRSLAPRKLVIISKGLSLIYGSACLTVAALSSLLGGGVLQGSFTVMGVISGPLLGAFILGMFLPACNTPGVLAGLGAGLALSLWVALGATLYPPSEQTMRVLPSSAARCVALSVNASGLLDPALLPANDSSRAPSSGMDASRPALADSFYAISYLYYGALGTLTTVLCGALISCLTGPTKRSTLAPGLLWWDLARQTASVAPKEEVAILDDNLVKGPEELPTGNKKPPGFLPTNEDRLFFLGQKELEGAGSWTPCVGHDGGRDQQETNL
Chain of UniProt P21554 (whole entry, looked up): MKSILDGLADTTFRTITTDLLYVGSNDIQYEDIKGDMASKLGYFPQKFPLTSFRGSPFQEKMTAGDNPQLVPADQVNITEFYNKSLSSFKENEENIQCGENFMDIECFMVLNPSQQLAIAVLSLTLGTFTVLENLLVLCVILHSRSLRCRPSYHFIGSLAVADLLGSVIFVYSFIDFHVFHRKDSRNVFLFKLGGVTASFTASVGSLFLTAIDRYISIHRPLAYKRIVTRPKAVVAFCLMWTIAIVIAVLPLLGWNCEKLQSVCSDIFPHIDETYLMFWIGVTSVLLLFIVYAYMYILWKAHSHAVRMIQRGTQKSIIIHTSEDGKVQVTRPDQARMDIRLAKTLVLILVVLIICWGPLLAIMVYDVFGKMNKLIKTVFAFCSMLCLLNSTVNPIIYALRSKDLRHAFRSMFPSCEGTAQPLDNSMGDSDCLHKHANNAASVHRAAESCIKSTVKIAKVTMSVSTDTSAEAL
Chain of UniProt Q01827 (whole entry, looked up): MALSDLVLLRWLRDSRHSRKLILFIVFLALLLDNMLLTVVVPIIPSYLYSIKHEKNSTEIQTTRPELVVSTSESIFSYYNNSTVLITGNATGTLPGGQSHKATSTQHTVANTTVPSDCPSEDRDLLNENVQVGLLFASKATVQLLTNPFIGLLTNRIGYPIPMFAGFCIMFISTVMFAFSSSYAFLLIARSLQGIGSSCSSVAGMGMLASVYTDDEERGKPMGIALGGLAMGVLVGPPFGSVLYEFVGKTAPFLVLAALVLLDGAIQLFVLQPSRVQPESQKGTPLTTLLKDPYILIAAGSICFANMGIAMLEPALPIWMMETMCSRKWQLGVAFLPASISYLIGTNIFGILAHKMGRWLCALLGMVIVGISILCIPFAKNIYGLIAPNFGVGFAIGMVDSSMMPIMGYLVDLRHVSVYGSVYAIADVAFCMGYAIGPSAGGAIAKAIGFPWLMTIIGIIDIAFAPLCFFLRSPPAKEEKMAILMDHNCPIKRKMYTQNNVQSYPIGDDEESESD
Chain of UniProt P23921 (whole entry, looked up): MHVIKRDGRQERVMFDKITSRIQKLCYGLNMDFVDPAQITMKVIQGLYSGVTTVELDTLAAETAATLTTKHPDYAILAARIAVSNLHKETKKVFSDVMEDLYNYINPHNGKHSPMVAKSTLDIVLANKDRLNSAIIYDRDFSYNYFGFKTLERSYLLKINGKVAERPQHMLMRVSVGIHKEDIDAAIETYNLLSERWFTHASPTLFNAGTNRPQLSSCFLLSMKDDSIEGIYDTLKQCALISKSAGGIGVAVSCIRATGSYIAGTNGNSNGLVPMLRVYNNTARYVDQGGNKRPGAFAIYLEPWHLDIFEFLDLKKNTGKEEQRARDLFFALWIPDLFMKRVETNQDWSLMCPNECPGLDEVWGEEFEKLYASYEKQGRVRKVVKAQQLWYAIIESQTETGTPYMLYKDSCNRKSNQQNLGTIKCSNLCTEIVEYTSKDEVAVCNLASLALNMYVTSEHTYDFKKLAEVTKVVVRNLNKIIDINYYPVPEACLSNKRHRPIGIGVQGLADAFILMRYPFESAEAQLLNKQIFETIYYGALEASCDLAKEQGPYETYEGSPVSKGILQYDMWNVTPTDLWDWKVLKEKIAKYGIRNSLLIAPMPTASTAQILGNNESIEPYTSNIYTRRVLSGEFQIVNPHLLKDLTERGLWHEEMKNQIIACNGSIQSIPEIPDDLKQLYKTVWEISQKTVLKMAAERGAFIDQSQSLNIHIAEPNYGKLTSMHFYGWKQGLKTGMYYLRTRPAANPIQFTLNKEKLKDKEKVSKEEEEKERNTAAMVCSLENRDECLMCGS

Substance	target	assay	system	conditions	quantity	value
Nc1ncnc2c1ncn2[C@@H]1O[C@H](COP(=O)(O)OP(=O)(O)O)[C@@H](O)[C@H]1O	P2Y1 receptor	reporter gene, yeast reporter system	–	24 h	pEC50	5.64
N#Cc1c(N)nc(SCC(N)=O)c(C#N)c1-c1ccc(OCC2CC2)cc1	adenosine receptor A2B (mouse)	binding, partial agonist	–	–	pKi	6.87
CC(C)(c1ccccc1)c1ccc(O)cc1	estrogen receptor	reporter gene, agonist	–	–	pEC50	7.00
CN1C/C(=C\c2ccc(Cl)cc2Cl)C/C(=C\c2ccc(Cl)cc2Cl)C1	Slc18a2 (Rattus norvegicus, UniProt Q01827)	substrate site binding	–	–	pKi	6.66
C[C@H](CC[C@@H]1OC1(C)C)[C@H]1CC[C@H]2[C@@H]3CC=C4C[C@@H](O)CC[C@]4(C)[C@H]3CC[C@]12C	LXR	reporter gene, agonist	–	–	pEC50	5.00 to 6.00
CC=O	yeast alcohol dehydrogenase H48Q	inhibitor, product inhibition, slope constant	–	pH 7.3, 30 °C	pKi	3.26
CCOc1cc(Oc2ccc(C(F)(F)F)cc2Cl)ccc1[N+](=O)[O-]	SLC5A5 (Homo sapiens, UniProt Q92911)	iodide uptake, inhibitor	HEK293T expressing human NIS	–	pEC50	~5.70
CN1[C@@H](CC(=O)c2ccccc2)CCC[C@H]1C[C@H](O)c1ccccc1	alpha4beta2 nicotinic acetylcholine receptor	binding	–	added: [3H]nicotine	pKi	7.80
cyclic	accessory gene regulator protein C (Staphylococcus aureus, UniProt O33587)	reporter gene, agonist, β-lactamase reporter	–	–	pEC50	7.39
O=C(Nc1cc(Cl)ccc1O)Nc1cc(C(F)(F)F)ccc1Cl	nicotinic acetylcholine receptor alpha7	agonist	–	–	pEC50	4.89 to 5.52
CCc1c(C(=O)NCCc2ccc(N(C)C)cc2)[nH]c2ccc(Cl)cc12	CNR1 (Homo sapiens, UniProt P21554)	allosteric modulator, radioligand binding	–	added: [3H]CP55,940	Kb	207 nM
Nc1nc(Cl)nc2c1ncn2[C@@H]1O[C@H](COP(=O)(O)OP(=O)(O)OP(=O)(O)O)[C@@H](O)[C@@H]1F	Ribonucleoside-diphosphate reductase large subunit (Homo sapiens, UniProt P23921)	oligomerization	–	–	pEC50	7.15
O=C(O)[C@H]1O[C@H](OP(=O)(O)OP(=O)(O)OC[C@H]2O[C@@H](n3ccc(=O)[nH]c3=O)[C@H](O)[C@@H]2O)[C@H](O)[C@@H](O)[C@@H]1O	P2Y purinoceptor 14 (P2RY14, Homo sapiens, UniProt Q15391)	cAMP level, agonist	–	–	pEC50	6.43

Repeated from above:
Substance	target	assay	system	conditions	quantity	value
CN1C/C(=C\c2ccc(Cl)cc2Cl)C/C(=C\c2ccc(Cl)cc2Cl)C1	Slc18a2 (Rattus norvegicus, UniProt Q01827)	substrate site binding	–	–	pKi	6.66
